# Measurements of several laboratories.
# Each numbered part is a random draw from the data of one study; scales do not carry over between parts. Substitutions count along the parent as printed.

# Set 1 — target: CCNB3, cyclin fold, Cln2 fusion (human); method: yeast growth competition, sequencing; medium: yeast; setting: strong parent motif; relative to: not given; reading: higher = stronger binding; starting sequence: viral docking peptide; YKVKRRLVFGADD
Substitution,normalised enrichment score
F9N,0.0203
R5F,-0.0531
D12L,1.41
D12M,2.02
G10Q,1.55
D12Q,1.73
G10R,1.26
F9G,0.0432
R5N,-0.116
K2F,1.47
L7M,0.0924
K4M,-0.0905
R6A,0.7
D12H,1.11
G10H,1.38
R6F,0.402
V3L,0.61
K2S,2.26
V8N,1.9
V3A,1.03
R6Q,0.303
F9R,-0.303
K4G,0.317
R6I,1.74
F9C,0.055

# Set 2 — target: UBE2W UBC core domain (UniProt Q96B02); method: yeast two-hybrid; medium: yeast; setting: mostly zero background; relative to: not given; reading: higher = stronger interaction
# B1: RNF170 RING domain (UniProt Q96K19); chain TRQQFYTDMYCPICLHQASFPVETNCGHLFCGACIIAYWRYGSWLGAISCPICRQTVTLLLTVF
# B2: MID1 RING domain (UniProt O15344); chain METLESELTCPICLELFEDPLLLPCAHSLCFNCAHRILVSHCATNESVESITAFQCPTCRHVITLSQRGL
# B3: PHF21A RING domain (UniProt Q96BD5); chain SPTSTDGDIHEDFCSVCRKSGQLLMCDTCSRVYHLDCLDPPLKTIPKGMWICPRCQDQMLKKEEAIPW
# B4: TRIM72 RING domain (UniProt Q6ZMU5); chain APGLLHQELSCPLCLQLFDAPVTAECGHSFCRACLGRVAGEPAADGTVLCPCCQAPTRPQALST
# Construct (chain): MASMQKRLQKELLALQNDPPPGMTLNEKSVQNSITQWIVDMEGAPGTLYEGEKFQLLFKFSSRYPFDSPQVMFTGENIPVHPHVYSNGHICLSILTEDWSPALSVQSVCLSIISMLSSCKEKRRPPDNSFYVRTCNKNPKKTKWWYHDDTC
Sequence,lacZ reporter activity
B1 (RNF170 RING domain),0
QLRRLQEERTCKVCMDKEVSVVFIPCGHLVVCQECAPSLRKCPICRGIIKGTVRTF (BIRC2 RING domain (UniProt Q13490)),6730
B2 (MID1 RING domain),0
QLQDIKEQTMCPVCLDRLKNMIFLCGHGTCQLCGDRMSECPICRKAIERRILLY (MIB1 RING domain (UniProt Q86YT6)),8280
B3 (PHF21A RING domain),0
B4 (TRIM72 RING domain),0
FPEHFVKSISCQICEHILADPVETNCKHVFCRVCILRCLKVMGSYCPSCRYPCFPTDLES (RAG1 RING domain (UniProt P15918)),0

# Set 3 — method: protein-binding microarray; molecule type: double-stranded DNA, one strand shown; medium: in vitro; tested at: not given; reading: higher = stronger binding
# Target: Transcriptional repressor CTCF (CTCF, Homo sapiens, UniProt P49711, residues 1-727, full length assumed)
# Setting: k-mer, scored over probes, only values ≥0.25
# Construct (chain): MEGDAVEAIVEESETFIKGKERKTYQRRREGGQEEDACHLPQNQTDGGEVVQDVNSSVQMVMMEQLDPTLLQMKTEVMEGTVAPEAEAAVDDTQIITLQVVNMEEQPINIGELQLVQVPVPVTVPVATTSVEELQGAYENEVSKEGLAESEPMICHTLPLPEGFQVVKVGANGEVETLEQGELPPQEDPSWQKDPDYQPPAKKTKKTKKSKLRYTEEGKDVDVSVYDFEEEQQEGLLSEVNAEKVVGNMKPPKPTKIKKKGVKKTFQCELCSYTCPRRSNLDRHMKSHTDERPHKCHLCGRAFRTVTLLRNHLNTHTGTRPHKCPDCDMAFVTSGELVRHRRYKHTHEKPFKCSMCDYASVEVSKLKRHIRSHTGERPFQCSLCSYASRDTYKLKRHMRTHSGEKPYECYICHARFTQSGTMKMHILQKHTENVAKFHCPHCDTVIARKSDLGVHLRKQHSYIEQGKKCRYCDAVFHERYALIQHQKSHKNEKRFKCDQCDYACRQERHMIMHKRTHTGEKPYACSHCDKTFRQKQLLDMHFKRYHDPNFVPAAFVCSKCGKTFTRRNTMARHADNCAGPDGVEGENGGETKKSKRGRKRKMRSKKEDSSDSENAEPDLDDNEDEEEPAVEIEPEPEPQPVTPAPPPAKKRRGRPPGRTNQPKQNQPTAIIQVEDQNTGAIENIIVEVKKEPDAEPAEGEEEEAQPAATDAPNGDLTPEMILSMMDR
Oligonucleotide,E-score
ACATGTAT,0.379
AAACGCCA,0.252
CAGTAATG,0.256
ATATTCCA,0.285
CATGTTTC,0.313
ACATTGTA,0.271
AATAACAG,0.256
CCTAATAA,0.277

# Set 4 — effect on: peptide-MHC binding; molecule type: peptide; tested at: concentration not given
# Target: HLA class I histocompatibility antigen, A alpha chain, allele A*80:01 (Homo sapiens, UniProt P04439)
Sequence,binding
VSDGGPNLY,inactive
MLKLRQARL,inactive
FTFERSKIK,inactive
WSHRVTSPK,inactive
EHVQGDIDL,inactive
VSDRPVMRY,inactive

# Mixed results — method: cross-linking MS
Substance,partner,medium,setting,with,endpoint,result
"TPT1 (Homo sapiens, UniProt P13693)","EEF1A1 (Homo sapiens, UniProt P68104)",,hits only,,interaction screen,cross-linked
"CSNK1A1 (Homo sapiens, UniProt P48729)","COL28A1 (Homo sapiens, UniProt Q2UY09)",cell fractions,,DSSO,cross-linked residues,K225 to K845
"RNASEH2A (Homo sapiens, UniProt O75792)","SAFB2 (Homo sapiens, UniProt Q14151)",cell fractions,,DSSO,cross-linked residues,K247 to S493
"TADA1 (Homo sapiens, UniProt Q96BN2)","TAF9B (Homo sapiens, UniProt Q9HBM6)",cell fractions,,DSSO,cross-linked residues,K108 to K24

# Repeated from above (set 1):
Substitution,normalised enrichment score
R5N,-0.116
K2F,1.47
L7M,0.0924
K4M,-0.0905
R6A,0.7
D12H,1.11
